# Assay results gathered from unrelated publications.
# Parts stem from different laboratories: compare values within a part only. Positions count from the first letter of the parent shown.

# Study 1 — technique: DHFR PCA, deep sequencing; medium: yeast; together with: (+)-ABA 0.11 µM; baseline: wild-type fitted maximum; direction: higher = stronger binding
# Target: ABI1, truncated, D143A, DHFR fusion (Arabidopsis thaliana)
# Notes: methotrexate growth selection, single substitutions
# Parent: PYL1, truncated, DHFR fusion (Arabidopsis thaliana); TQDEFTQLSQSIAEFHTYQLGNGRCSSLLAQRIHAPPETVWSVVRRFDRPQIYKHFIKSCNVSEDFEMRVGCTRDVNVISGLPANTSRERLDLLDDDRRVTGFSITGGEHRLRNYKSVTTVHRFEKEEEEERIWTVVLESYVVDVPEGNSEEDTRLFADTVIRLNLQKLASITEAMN; partner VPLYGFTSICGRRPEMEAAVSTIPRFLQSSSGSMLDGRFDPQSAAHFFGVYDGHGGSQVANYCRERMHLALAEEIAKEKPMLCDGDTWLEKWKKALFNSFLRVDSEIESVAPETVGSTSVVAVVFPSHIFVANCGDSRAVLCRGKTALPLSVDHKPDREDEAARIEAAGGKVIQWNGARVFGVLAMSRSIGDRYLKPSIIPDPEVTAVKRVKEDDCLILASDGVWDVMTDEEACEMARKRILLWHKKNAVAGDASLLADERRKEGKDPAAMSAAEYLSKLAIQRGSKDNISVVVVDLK
Substitution,relative binding score [%]
F15Q,-4.13
V43R,-1.86
V118H,8.21
S59K,41.8
H34M,48
H34S,24.6
Q51G,4.64
D48H,-9.99
V161E,0.261
R163W,0.0809
Q10N,31.9
G102R,-2.51
R32G,6.71
S26V,3.07
Y141I,-2.86
F66H,15
R123V,-0.869
S63W,2.56
Q7G,34.4

# Study 2 — technique: aptamer microarray, sandwich; form: DNA with 2'F-ANA; medium: in vitro; concentration: 200 nM; together with: Cy3 exosite-II aptamer, 400 nM; direction: higher = stronger binding; strand: GGTTGGTGTGGTTGG
# Target: Prothrombin, mature alpha-thrombin (F2, Homo sapiens, UniProt P00734)
# Notes: whole 15-mer aptamer, many near background
Modification,mean fluorescence intensity [a.u.]
2'F-ANA at 1 4 5 7 10 11 12 13 14 15,156
2'F-ANA at 1 4 8 13 15,117
2'F-ANA at 3 6 7 10 11 15,488
2'F-ANA at 3 4 6 8 13 14 15,247
2'F-ANA at 1 6 10 13 14 15,50.3
2'F-ANA at 2 5 6 7 8 10 13 14 15,49
2'F-ANA at 4 5 7 9 12 13 15,94
2'F-ANA at 1 5 10 13 15,47.7
2'F-ANA at 1 2 3 7 10 13,78.5
2'F-ANA at 1 2 3 4 6 7 8 9 10 11 13 14 15,88
2'F-ANA at 4 5 6 8 9 11 13 14,45
2'F-ANA at 1 2 7 8 12 15,477
2'F-ANA at 1 3 5 6 7 9 12 15,118
2'F-ANA at 1 3 8 14,118
2'F-ANA at 3 5 6 12 13 15,175
2'F-ANA at 5 6 9 11 12 14 15,49.6
2'F-ANA at 4 7 12 14,168
2'F-ANA at 6 7 10 14,137
2'F-ANA at 1 2 4 5 6 7 9 11 14 15,55
2'F-ANA at 3 4 6 7 12,1050
2'F-ANA at 2 4 5 7,70
2'F-ANA at 4 5 6 7 10 11 13 14 15,49.5

# Study 3 — technique: RNA Bind-n-Seq; form: RNA; medium: in vitro; concentration: 200 nM; notes: whole 134-nt RNA, ends assumed; together with: 150 mM KCl; baseline: input library; direction: higher = stronger binding
# Target: Fragile X messenger ribonucleoprotein 1, C-terminal low-complexity region (Fmr1, Mus musculus, UniProt P35922)
# Shared flanks, not repeated: GGGAGUUCUACAGUCCGACGAUC … UGGAAUUCUCGGGUGUCAAGG
Strand,log2 enrichment
GCAGGAAGUAACAACAAAUGGAAAUGCUUCGGAUAGUGGCAGGGGUGGGGGUUGCUAAGGAAAGGGUGGGAUGGGAGUGGGUAAAGAGUU,0.227
UCCUGUGCUACACAUCGUAUGUACCGAAUCGGGGAAAAAAAGGGGUUUUUGGGGUGGGGAAAGUAUUAUGUUACGCCGUUCGGAUCUGCA,0.883
CACAGACAACACGCACCCACACAGACACAGAGGGAAGGGGUUGGGAUGGGGACAGGGUGAACAGCAGGGCGGGGUAGGACCCCAGCCCCU,1.22
AGUCCUGUGCUACACAUCGUAUGUACCGAAUCGGGUGGGUUUUUGGGUUUUUUUGGGAAAGUAUUAUGUUACGCCGUUCGGAUCUGCACU,0.39
AAGUCCUGUGCUACACAUCGUAUGUACCGAAUCGGUUUUUUUGGAGGUUUUUUUGGAAAGUAUUAUGUUACGCCGUUCGGAUCUGCACUU,-0.869
ACCAUGCAGGUGGGCAUCUUUGGGAAGUGGGGCAAGGGGGGCAUAGGGAGGGGGGUAACACUUUGGGAACAGGUGGUCCCAGGUCGUUUC,0.639
UGGGAGGUGGAUUUUGUUUAUUUAUUUAGCUCAUUUCCAGGGGUGGGAAUUUUUUUUUAAUAUGUGUCAUGAAUAAAGUUGUUUUUGAAA,0.18
UCAAGUCCUGUGCUACACAUCGUAUGUACCGAAUCGGGGAAAGGAAAGGAAAGGGAAAGUAUUAUGUUACGCCGUUCGGAUCUGCACUUC,-0.465
CACAGACAACACGCACCCACACAGACACAGAGGGAAGGGGUUGGUAUGGGGACAGGGUGCACAGCAGGGCGGGGUAGGACCCCAGCCCCU,1.34

# Study 4 — technique: protein binding microarray; form: double-stranded DNA, one strand shown; medium: in vitro; concentration: not given; baseline: not given; direction: higher = stronger binding
# Target: Histone acetyltransferase KAT6A, both winged helices, GST fusion (KAT6A, Homo sapiens, UniProt Q92794, residues 1-181)
# Notes: 8-mer, flanks averaged, mean of 2 arrays, mostly near background
# Residues (chain): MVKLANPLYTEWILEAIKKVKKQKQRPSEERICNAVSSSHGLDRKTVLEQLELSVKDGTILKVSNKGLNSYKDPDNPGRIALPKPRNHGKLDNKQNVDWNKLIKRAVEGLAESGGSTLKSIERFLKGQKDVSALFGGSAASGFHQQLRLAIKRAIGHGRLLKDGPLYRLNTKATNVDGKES
Strand,E-score
TCGTCTAA,0.0291
GAGTTCGC,0.0383
ATGGAGCC,-0.179
ACATCCAC,-0.171
AAGAACAC,0.0234
GACGGAAC,0.214
ACGCTGCC,0.074
ACAACCTC,0.0173
CTTGATTC,-0.0407
CAGGCAAG,-0.129
ATGTTCAG,-0.165
AAGAGGAC,-0.202
CCCGATTC,0.0872
AGTAGAAA,-0.0745
TATAGGAA,-0.0527
GCAATACA,0.183
CAGGGGAG,-0.118
GATCTACC,-0.038
ACCATCTG,-0.0632
ATCATTTC,-0.106
CGTCGTGA,0.191
AGGCAACG,-0.0974
CTGTTGAC,-0.162
AATGTGCC,0.0818
ACTCAGAC,-0.114
